# Experimental data gathered from unrelated publications.
# Lines come from different studies, so protocols differ. ± marks the error that the study gave.
SMILES,test,test system,setting,how to read,quantity,result
COc1ccc2nc3ccc(OC)cc3c(SCCCN)c2c1,,"5TGM1-GFP, J:NU mouse myeloma allograft","50 mg/kg, from day 14",,mean survival,28.5 days
CC[C@H](C)[C@H](NC(=O)[C@H](CCCNC(=N)N)NC(=O)[C@H](CCC(N)=O)NC(=O)[C@H](CC(=O)O)NC(=O)[C@H](CC(C)C)NC(=O)[C@H](CC(C)C)NC(=O)[C@H](CC(N)=O)NC(=O)[C@H](Cc1ccccc1)NC(=O)[C@H](CC(=O)O)NC(=O)[C@@H](NC(=O)[C@@H](NC(=O)[C@H](CC(N)=O)NC(=O)CNC(=O)[C@H](CO)NC(C)=O)C(C)C)[C@@H](C)CC)C(=O)N[C@H](C(=O)N[C@@H](Cc1c[nH]c2ccccc12)C(=O)N[C@@H](CCC(N)=O)C(=O)N[C@@H](CC(N)=O)C(=O)N[C@@H](Cc1c[nH]c2ccccc12)C(=O)N[C@@H](Cc1ccc(O)cc1)C(=O)N[C@@H](C)C(N)=O)[C@@H](C)CC,measured: HA-19 tetramer,"antigen-experienced tetramer+ CD4 T cells, healthy adults, HLA-DRB1*0101",dose not given,,α4β7+ CCR9− cells,30.8%
CCN(C(=O)c1cc(F)ccc1Oc1nncnc1N1CCC2(C1)CN([C@H](CCCN(C)CCOC)C(C)C)C2)C(C)C,,"mouse, sample A AML PDX","dose not given, all dose levels",,median survival,> 147 days
CC(C)C[C@H](NC(=O)[C@H](C)NC(=O)CNC(=O)[C@H](CO)NC(=O)CNC(=O)[C@H](CCCNC(=N)N)NC(=O)[C@H](CCCNC(=N)N)NC(=O)[C@H](CCCNC(=N)N)NC(=O)[C@H](CCC(N)=O)NC(=O)[C@H](CCCNC(=N)N)NC(=O)[C@H](CCCNC(=N)N)NC(=O)[C@H](CCCCN)NC(=O)[C@H](CCCCN)NC(=O)[C@H](CCCNC(=N)N)NC(=O)CNC(=O)[C@@H](N)Cc1ccc(O)cc1)C(=O)N[C@@H](CO)C(=O)N[C@H](C(=O)N[C@@H](CCC(=O)O)C(=O)N[C@@H](CCCNC(=N)N)C(=O)O)[C@@H](C)O,inhibitor,isolated rat heart,"concentration not given, ischemia/reperfusion",,troponin I phosphorylation,no inhibition
COc1ccc2c(c1)/C(=N\Nc1nnc3n1N=C(c1ccc(Cl)cc1)CS3)C(=O)N2,angiogenesis,hen egg chorioallantoic membrane,40 µM,baseline: DMSO vehicle,number of blood vessels,decreased
CC[C@H](C)[C@H](NC(=O)CNC(=O)[C@H](CC(=O)O)NC(=O)[C@H](CCCNC(=N)N)NC(=O)[C@@H](NC(=O)[C@H](CC(N)=O)NC(=O)[C@H](CCC(N)=O)NC(=O)CNC(=O)[C@@H](NC(=O)[C@H](CCCCN)NC(=O)[C@H](CCC(=O)O)NC(=O)[C@@H](NC(=O)[C@H](CCCCN)NC(=O)[C@H](CCCCN)NC(=O)[C@H](Cc1ccccc1)NC(=O)[C@H](CC(C)C)NC(=O)[C@H](CCCCN)NC(=O)[C@H](Cc1c[nH]c2ccccc12)NC(=O)[C@@H](N)CCCCN)[C@@H](C)CC)C(C)C)[C@@H](C)CC)C(=O)N[C@H](C(=O)N[C@@H](CCCCN)C(=O)N[C@@H](C)C(=O)NCC(=O)N1CCC[C@H]1C(=O)N[C@@H](C)C(=O)N[C@H](C(=O)N[C@@H](C)C(=O)N[C@H](C(=O)N[C@H](C(=O)NCC(=O)N[C@@H](CCC(N)=O)C(=O)N[C@@H](C)C(=O)N[C@H](C(=O)N[C@@H](CCC(N)=O)C(=O)N[C@H](C(=O)N[C@@H](C)C(=O)N[C@@H](CCCCN)C(N)=O)[C@@H](C)CC)[C@@H](C)O)C(C)C)C(C)C)C(C)C)[C@@H](C)CC,"carboxyfluorescein release, stopped-flow fluorescence",POPC vesicles 50 µM,"up to 1 µM, pH 7.5, peptide/lipid 1:50",,time constant,~15000 s
CCc1cnc(NC(=O)c2cc(S(=O)(=O)N3CCOCC3)ccc2N(C)C2CCCC2)s1,,"mouse, HCC827-GR xenograft","intraperitoneal, 10 mg/kg every other day, 8 doses",,time to tumour volume 500 mm3,23.7 days
CC[C@H](C)[C@H](NC(=O)[C@@H](NC(=O)[C@H](CC(=O)O)NC(C)=O)[C@@H](C)O)C(=O)N[C@@H](CCCNC(=N)N)C(=O)N[C@@H](CC(C)C)C(=O)N[C@@H](CC(C)C)C(=O)N[C@@H](Cc1ccccc1)C(=O)N[C@@H](CCC(N)=O)C(=O)N[C@@H](CC(C)C)C(=O)N[C@@H](CCSC)C(=O)N[C@@H](CCCNC(=N)N)C(=O)N1CCC[C@H]1C(=O)N1CCC[C@H]1C(=O)N[C@@H](CC(N)=O)C(=O)N[C@@H](CCSC)C(=O)N[C@H](C(=O)N1CCC[C@H]1C(=O)N[C@@H](C)C(=O)N[C@H](C(=O)N[C@@H](CC(N)=O)C(=O)N[C@@H](C)C(N)=O)C(C)C)[C@@H](C)O,measured: HA-52 tetramer,"antigen-experienced tetramer+ CD4 T cells, healthy adults, HLA-DRB1*0101",dose not given,,α4β7+ CCR9− cells,31.2%
CC[C@H](C)[C@H](N)C(=O)N[C@@H](CO)C(=O)N[C@@H](Cc1ccc(O)cc1)C(=O)NCC(=O)NCC(=O)N[C@@H](C)C(=O)N[C@@H](CC(=O)O)C(=O)N[C@@H](Cc1ccc(O)cc1)C(=O)N[C@@H](CCCCN)C(=O)O,acetic acid writhing,wild-type mice,"intrathecal, 20 min, with: acetic acid 1% i.p.",,ED50,3.38 nmol
O=c1c(O)c(-c2cc(O)ccc2O)oc2cc(O)cc(O)c12,DPPH radical scavenging,,1000 µg/mL,,inhibition,87.4 ± 1.2%

# For quick reference, copied from above:
SMILES,test,test system,setting,how to read,quantity,result
CC[C@H](C)[C@H](NC(=O)[C@H](CCCNC(=N)N)NC(=O)[C@H](CCC(N)=O)NC(=O)[C@H](CC(=O)O)NC(=O)[C@H](CC(C)C)NC(=O)[C@H](CC(C)C)NC(=O)[C@H](CC(N)=O)NC(=O)[C@H](Cc1ccccc1)NC(=O)[C@H](CC(=O)O)NC(=O)[C@@H](NC(=O)[C@@H](NC(=O)[C@H](CC(N)=O)NC(=O)CNC(=O)[C@H](CO)NC(C)=O)C(C)C)[C@@H](C)CC)C(=O)N[C@H](C(=O)N[C@@H](Cc1c[nH]c2ccccc12)C(=O)N[C@@H](CCC(N)=O)C(=O)N[C@@H](CC(N)=O)C(=O)N[C@@H](Cc1c[nH]c2ccccc12)C(=O)N[C@@H](Cc1ccc(O)cc1)C(=O)N[C@@H](C)C(N)=O)[C@@H](C)CC,measured: HA-19 tetramer,"antigen-experienced tetramer+ CD4 T cells, healthy adults, HLA-DRB1*0101",dose not given,,α4β7+ CCR9− cells,30.8%
